Experimental data from different studies.
± gives the spread as reported. Where no end group is shown, it is not given here. No end group written: not given here. [ ]: non-standard residue; d: D form. *: point of attachment.
B1: enzyme (Bacillus pumilus, UniProt A8FFI9); chain EARSIAWSVDEFFKNREGTFVIQEVKEKSPWVYNKKRAKERFAPQSTFKVANALIGLQTGAVRDEYDIKYWDGVKREIDNWNRDHTLGSGMRDSVVWYYQAMARDIGEERMNHWVKAIHYGNKDISGGIDQFWLSSTLRISPIEQVRFLKQLYEETLPFDLKNMRTVKRMMVQEEEKHATLYGKTGSGSDIGWYVGFIKHEHKTYILATNIKGTGIEAKDITYRILKKYHLMEASV
B2: CACYBP (Homo sapiens, UniProt Q9HB71); sequence looked up; chain MASEELQKDLEEVKVLLEKATRKRVRDALTAEKSKIETEIKNKMQQKSQKKAELLDNEKPAAVVAPITTGYTVKISNYGWDQSDKFVKIYITLTGVHQVPTENVQVHFTERSFDLLVKNLNGKSYSMIVNNLLKPISVEGSSKKVKTDTVLILCRKKVENTRWDYLTQVEKECKEKEKPSYDTETDPSEGLMNVLKKIYEDGDDDMKRTINKAWVESREKQAKGDTEF
B3: MYH7 839-968 (Homo sapiens, UniProt P12883); sequence looked up; chain LLKSAEREKEMASMKEEFTRLKEALEKSEARRKELEEKMVSLLQEKNDLQLQVQAEQDNLADAEERCDQLIKNKIQLEAKVKEMNERLEDEEEMNAELTAKKRKLEDECSELKRDIDDLELTLAKVEKEK
B4: POLQ helicase and polymerase, central domain replaced 1-898 del899-1789 (Homo sapiens, UniProt O75417); Red-tris-NHS label; chain MNLLRRSGKRRRSESGSDSFSGSGGDSSASPQFLSGSVLSPPPGLGRCLKAAAAGECKPTVPDYERDKLLLANWGLPKAVLEKYHSFGVKKMFEWQAECLLLGQVLEGKNLVYSAPTSAGKTLVAELLILKRVLEMRKKALFILPFVSVAKEKKYYLQSLFQEVGIKVDGYMGSTSPSRHFSSLDIAVCTIERANGLINRLIEENKMDLLGMVVVDELHMLGDSHRGYLLELLLTKICYITRKSASCQADLASSLSNAVQIVGMSATLPNLELVASWLNAELYHTDFRPVPLLESVKVGNSIYDSSMKLVREFEPMLQVKGDEDHVVSLCYETICDNHSVLLFCPSKKWCEKLADIIAREFYNLHHQAEGLVKPSECPPVILEQKELLEVMDQLRRLPSGLDSVLQKTVPWGVAFHHAGLTFEERDIIEGAFRQGLIRVLAATSTLSSGVNLPARRVIIRTPIFGGRPLDILTYKQMVGRAGRKGVDTVGESILICKNSEKSKGIALLQGSLKPVRSCLQRREGEEVTGSMIRAILEIIVGGVASTSQDMHTYAACTFLAASMKEGKQGIQRNQESVQLGAIEACVMWLLENEFIQSTEASDGTEGKVYHPTHLGSATLSSSLSPADTLDIFADLQRAMKGFVLENDLHILYLVTPMFEDWTTIDWYRFFCLWEKLPTSMKRVAELVGVEEGFLARCVKGKVVARTERQHRQMAIHKRFFTSLVLLDLISEVPLREINQKYGCNRGQIQSLQQSAAVYAGMITVFSNRLGWHNMELLLSQFQKRLTFGIQRELCDLVRVSLLNAQRARVLYASGFHTVADLARANIVEVEVILKNAVPFKSARKAVDEEEEAVEERRNMRTIWVTGRKGLTEREAAALIVEEARMILQQDLVEMGVQWGSAGSAAGSGEFRNGFKDNSPISDTSFSLQLSQDGLQLTPASSSSESLSIIDVASDQNLFQTFIKEWRCKKRFSISLACEKIRSLTSSKTATIGSRFKQASSPQEIPIRDDGFPIKGCDDTLVVGLAVCWGGRDAYYFSLQKEQKHSEISASLVPPSLDPSLTLKDRMWYLQSCLRKESDKECSVVIYDFIQSYKILLLSCGISLEQSYEDPKVACWLLDPDSQEPTLHSIVTSFLPHELPLLEGMETSQGIQSLGLNAGSEHSGRYRASVESILIFNSMNQLNSLLQKENLQDVFRKVEMPSQYCLALLELNGIGFSTAECESQKHIMQAKLDAIETQAYQLAGHSFSFTSSDDIAEVLFLELKLPPNREMKNQGSKKTLGSTRRGIDNGRKLRLGRQFSTSKDVLNKLKALHPLPGLILEWRRITNAITKVVFPLQREKCLNPFLGMERIYPVSQSHTATGRITFTEPNIQNVPRDFEIKMPTLVGESPPSQAVGKGLLPMGRGKYKKGFSVNPRCQAQMEERAADRGMPFSISMRHAFVPFPGGSILAADYSQLELRILAHLSHDRRLIQVLNTGADVFRSIAAEWKMIEPESVGDDLRQQAKQICYGIIYGMGAKSLGEQMGIKENDAACYIDSFKSRYTGINQFMTETVKNCKRDGFVQTILGRRRYLPGIKDNNPYRKAHAERQAINTIVQGSAADIVKIATVNIQKQLETFHSTFKSHGHREGMLQSDQTGLSRKRKLQGMFCPIRGGFFILQLHDELLYEVAEEDVVQVAQIVKNEMESAVKLSVKLKVKVKIGASWGELKDFDV
B5: HSPB5 (Homo sapiens, UniProt P02511); sequence looked up; chain MDIAIHHPWIRRPFFPFHSPSRLFDQFFGEHLLESDLFPTSTSLSPFYLRPPSFLRAPSWFDTGLSEMRLEKDRFSVNLDVKHFSPEELKVKVLGDVIEVHGKHEERQDEHGFISREFHRKYRIPADVDPLTITSSLSSDGVLTVNGPRKQVSGPERTIPITREEKPAVTAAPKK
B6: TREM2 19-174 (Homo sapiens, UniProt Q9NZC2); sequence looked up; chain HNTTVFQGVAGQSLQVSCPYDSMKHWGRRKAWCRQLGEKGPCQRVVSTHNLWLLSFLRRWNGSTAITDDTLGGTLTITLRNLQPHDAGLYQCQSLHGSEADTLRKVLVEVLADPLDHRDAGDLWFPGESESFEDAHVEHSISRSLLEGEIPFPPTS
B7: TLN1 2494-2541 (Homo sapiens, UniProt Q9Y490); C-terminal Oregon Green 488; chain MVGGIAQIIAAQEEMLRKERELEEARKKLAQIRQQQYKFLPSELRDEHGC(Oregon Green 488 maleimide)
UniProt P19466, sequence (whole entry, unmodified, looked up): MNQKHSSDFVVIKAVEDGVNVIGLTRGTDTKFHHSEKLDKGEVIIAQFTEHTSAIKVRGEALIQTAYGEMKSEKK
UniProt Q8MQJ9, sequence (whole entry, looked up): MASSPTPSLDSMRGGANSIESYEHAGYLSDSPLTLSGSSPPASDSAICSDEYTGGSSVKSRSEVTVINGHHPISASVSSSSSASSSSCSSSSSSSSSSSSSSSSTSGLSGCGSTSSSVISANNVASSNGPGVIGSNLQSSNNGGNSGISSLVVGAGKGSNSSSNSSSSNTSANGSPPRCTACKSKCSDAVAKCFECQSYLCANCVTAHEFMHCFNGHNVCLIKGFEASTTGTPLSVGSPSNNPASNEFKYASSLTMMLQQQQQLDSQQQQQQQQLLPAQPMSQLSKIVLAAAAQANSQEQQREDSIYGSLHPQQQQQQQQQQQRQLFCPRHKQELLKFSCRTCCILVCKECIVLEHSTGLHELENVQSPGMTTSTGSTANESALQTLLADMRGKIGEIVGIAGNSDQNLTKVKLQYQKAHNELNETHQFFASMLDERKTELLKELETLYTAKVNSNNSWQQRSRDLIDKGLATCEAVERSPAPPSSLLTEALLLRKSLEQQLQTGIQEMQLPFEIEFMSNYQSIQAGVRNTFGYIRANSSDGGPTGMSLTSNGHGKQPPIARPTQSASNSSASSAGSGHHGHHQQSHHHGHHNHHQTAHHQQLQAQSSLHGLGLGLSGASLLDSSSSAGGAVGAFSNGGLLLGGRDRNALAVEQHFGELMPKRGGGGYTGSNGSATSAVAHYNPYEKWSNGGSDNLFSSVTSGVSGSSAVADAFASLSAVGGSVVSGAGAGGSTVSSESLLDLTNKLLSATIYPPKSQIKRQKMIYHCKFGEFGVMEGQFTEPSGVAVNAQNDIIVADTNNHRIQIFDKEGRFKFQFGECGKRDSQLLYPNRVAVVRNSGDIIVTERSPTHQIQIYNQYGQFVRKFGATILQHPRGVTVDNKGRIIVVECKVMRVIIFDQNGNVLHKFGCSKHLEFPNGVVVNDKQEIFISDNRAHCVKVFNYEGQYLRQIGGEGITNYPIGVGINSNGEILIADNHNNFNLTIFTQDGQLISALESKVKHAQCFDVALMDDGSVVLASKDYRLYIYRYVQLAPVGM
UniProt O95817, sequence (whole entry, looked up): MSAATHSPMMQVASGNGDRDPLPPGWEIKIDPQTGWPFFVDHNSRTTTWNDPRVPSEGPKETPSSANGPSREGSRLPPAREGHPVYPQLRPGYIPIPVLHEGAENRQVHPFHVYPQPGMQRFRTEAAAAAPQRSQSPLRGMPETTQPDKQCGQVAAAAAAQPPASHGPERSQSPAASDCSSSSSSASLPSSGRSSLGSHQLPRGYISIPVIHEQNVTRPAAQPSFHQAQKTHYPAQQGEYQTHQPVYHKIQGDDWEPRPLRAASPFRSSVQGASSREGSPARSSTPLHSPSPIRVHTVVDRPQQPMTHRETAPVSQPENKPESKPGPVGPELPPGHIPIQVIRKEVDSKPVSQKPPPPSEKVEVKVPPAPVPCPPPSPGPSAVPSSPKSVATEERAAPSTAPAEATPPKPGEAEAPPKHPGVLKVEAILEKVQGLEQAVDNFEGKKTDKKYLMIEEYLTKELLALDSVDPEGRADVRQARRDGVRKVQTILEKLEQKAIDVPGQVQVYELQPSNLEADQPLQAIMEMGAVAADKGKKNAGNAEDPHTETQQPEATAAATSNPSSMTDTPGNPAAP
UniProt Q6PL18, sequence (whole entry, unmodified, looked up): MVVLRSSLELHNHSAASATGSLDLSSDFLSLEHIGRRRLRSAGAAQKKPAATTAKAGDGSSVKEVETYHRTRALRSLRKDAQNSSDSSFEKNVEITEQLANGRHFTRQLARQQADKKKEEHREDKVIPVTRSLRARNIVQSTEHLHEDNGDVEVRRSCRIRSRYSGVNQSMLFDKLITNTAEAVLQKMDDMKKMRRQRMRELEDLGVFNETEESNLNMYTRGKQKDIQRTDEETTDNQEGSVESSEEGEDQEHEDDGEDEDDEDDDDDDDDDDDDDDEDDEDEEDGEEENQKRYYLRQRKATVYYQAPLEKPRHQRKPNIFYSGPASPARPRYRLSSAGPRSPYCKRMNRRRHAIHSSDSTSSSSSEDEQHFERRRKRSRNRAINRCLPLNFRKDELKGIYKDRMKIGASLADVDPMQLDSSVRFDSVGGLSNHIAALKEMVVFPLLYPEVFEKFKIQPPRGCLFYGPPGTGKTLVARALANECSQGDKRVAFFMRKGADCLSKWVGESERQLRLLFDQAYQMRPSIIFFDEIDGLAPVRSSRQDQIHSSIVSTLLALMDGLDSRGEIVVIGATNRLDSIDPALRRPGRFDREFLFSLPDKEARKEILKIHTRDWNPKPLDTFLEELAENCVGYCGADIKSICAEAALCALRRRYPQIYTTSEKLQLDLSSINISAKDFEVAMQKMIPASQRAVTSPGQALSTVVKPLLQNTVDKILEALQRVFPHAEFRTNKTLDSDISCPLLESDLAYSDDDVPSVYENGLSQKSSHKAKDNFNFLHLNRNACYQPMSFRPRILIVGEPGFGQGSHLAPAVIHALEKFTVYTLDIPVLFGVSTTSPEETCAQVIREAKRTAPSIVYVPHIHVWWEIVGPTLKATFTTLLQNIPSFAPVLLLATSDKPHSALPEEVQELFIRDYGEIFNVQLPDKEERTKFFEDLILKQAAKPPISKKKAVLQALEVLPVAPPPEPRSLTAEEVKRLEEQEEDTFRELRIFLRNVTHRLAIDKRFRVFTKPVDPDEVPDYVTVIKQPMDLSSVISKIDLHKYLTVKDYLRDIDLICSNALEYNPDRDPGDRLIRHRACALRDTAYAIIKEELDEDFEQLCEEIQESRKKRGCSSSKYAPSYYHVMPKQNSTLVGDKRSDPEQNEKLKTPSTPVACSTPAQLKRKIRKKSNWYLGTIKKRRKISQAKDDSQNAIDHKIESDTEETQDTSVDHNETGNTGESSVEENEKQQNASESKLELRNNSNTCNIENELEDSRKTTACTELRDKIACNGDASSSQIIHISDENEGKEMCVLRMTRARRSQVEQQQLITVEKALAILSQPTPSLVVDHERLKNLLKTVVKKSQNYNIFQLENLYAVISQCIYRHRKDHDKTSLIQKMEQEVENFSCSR
UniProt P26447, sequence (whole entry, looked up): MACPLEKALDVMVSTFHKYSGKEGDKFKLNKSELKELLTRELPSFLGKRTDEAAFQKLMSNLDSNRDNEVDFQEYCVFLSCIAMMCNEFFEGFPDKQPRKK
UniProt Q09822, sequence (whole entry, unmodified, looked up): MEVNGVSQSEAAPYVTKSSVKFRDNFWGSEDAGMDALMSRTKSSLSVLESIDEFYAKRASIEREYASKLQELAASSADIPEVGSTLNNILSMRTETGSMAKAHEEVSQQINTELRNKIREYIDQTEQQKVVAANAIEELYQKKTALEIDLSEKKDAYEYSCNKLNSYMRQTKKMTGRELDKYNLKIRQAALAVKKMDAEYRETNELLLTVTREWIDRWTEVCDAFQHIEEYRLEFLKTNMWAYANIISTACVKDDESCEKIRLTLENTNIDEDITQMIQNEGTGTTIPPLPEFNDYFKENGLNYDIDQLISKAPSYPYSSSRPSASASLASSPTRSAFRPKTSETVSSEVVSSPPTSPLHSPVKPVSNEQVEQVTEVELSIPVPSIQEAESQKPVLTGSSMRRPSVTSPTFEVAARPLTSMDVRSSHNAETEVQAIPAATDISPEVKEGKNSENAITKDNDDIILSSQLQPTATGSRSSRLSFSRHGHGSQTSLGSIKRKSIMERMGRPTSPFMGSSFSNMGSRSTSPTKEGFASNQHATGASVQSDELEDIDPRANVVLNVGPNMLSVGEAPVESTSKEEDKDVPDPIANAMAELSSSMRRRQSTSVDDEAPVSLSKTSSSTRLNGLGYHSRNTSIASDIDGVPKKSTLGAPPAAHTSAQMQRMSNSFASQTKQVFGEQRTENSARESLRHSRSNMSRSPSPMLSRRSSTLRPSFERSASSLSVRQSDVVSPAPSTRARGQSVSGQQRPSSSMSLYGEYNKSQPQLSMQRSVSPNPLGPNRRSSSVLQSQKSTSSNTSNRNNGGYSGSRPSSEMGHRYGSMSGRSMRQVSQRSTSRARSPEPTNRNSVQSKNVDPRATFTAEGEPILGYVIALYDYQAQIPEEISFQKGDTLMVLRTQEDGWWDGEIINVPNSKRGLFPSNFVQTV
UniProt Q16539, sequence (whole entry, looked up): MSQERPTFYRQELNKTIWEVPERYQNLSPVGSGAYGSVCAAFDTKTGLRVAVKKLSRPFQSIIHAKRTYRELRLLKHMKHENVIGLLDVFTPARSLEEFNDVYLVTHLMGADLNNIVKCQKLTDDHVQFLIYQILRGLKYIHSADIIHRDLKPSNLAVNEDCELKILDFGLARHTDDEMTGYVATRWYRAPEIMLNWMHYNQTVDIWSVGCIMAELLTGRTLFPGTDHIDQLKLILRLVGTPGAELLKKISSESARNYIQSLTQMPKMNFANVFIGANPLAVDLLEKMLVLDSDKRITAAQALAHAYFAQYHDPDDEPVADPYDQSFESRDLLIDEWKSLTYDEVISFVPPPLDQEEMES
UniProt P52917, sequence (whole entry, looked up): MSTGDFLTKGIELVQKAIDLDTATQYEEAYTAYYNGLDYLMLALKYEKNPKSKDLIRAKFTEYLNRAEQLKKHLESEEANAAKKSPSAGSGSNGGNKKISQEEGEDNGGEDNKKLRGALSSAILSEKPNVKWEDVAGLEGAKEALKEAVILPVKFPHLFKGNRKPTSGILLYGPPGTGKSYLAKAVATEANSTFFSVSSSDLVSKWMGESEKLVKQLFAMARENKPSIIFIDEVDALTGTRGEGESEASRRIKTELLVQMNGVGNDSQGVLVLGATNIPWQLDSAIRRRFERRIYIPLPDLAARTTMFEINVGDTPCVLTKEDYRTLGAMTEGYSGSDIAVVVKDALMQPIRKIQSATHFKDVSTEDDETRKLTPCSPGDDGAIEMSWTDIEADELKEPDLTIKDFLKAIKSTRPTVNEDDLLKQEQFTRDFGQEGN

`TREM2 fragment (Homo sapiens)` gave a Kd of 2.3 ± 0.4 µM (amyloid beta 40 fibrils (UniProt P05067); co-sedimentation; apparent).
`MGLQERRGSNVSLTLDMCTPGCNEEGFGYLVSPREESAHEYLLS (PTPN5 residues 214-257)` gave a Kd of 1.34 ± 0.135 µM (MAPK14 unphosphorylated (UniProt Q16539); ITC; peptide; 25 °C).
With `B1 (enzyme)` the kcat/Km was 15000 ± 2000 M⁻¹ s⁻¹ (C[C@H]1[C@H](NC(=O)/C(=N\OC(C)(C)C(=O)O)c2csc(N)n2)C(=O)N1S(=O)(=O)O; steady-state kinetics; pH 7).
With `B2 (CACYBP)` the Kd was 2.1 µM (MAB21L4 (Homo sapiens, UniProt Q08AI8); MST).
`B3 (MYH7 839-968)` gave a Kd of 60 ± 8 µM (MYH7/MYL3 sS1 1-808 D239N (Homo sapiens); MST; pH 7.5, KCl 100 mM, Hill fit, added: ADP 500 µM).
With `SGRGK(Ac)GGKGL (histone H4 residues 1-10; acetylated K5)` the Kd was 210 µM (ATAD2 bromodomain 981-1108 C1101A, Cys1057-Cys1079 disulfide (Homo sapiens, UniProt Q6PL18); ITC; peptide; pH 7.0, 5 °C, NaCl 150 mM).
`GAGUUGAGUUGAGUUGAGUUGAGUUGAGUUGAGUUGAGUUGAGUUGAGUUGAGUU (ssRNA; single strand)` gave a Kd of 0.093 ± 0.007 µM (mtrB full length assumed T30V/K56L (Bacillus subtilis, UniProt P19466); filter binding; added: L-tryptophan 1 mM).
`RRRRRRC / CGSFPPWVKKTEV (peptide; cyclic, disulfide-linked poly-Arg)` has a Kd of 0.0413 µM (DLG4 309-422 (Homo sapiens, UniProt P78352); SPR; peptide).
`GGGAGACCUAGCCUCAUAUAAUCGUUGUCCAGAAUUGUAUAUAUUCGUAGCAUAAGUUUUCCAAACAUUAUUUUGUUGUCGAAAAUUGUACAUAAGCCAAUUAAGCCGCUAAUUCU (ssRNA)`: binding “binds” (brat 756-1037 (Drosophila melanogaster, UniProt Q8MQJ9); UV cross-linking MS).
For `UGT1A9 (Homo sapiens, UniProt O60656)`, the Vmax/Km was 458 µL/min/mg (O=c1cc(-c2cccc(O)c2)oc2ccccc12; steady-state kinetics; pH 7.4, 37 °C).
`ARTK(Me2)QTARKSTGY (histone H3 peptide 2-13 (UniProt P68431); K4me2)` gave a Kd of 3190 ± 830 µM (MORF4L1 1-90 (Homo sapiens, UniProt Q9UBU8-2); NMR titration; peptide; pH 7.5, 25 °C).
The Kd of `B4` is reported as 0.21 µM (POLD1/POLD2/POLD3/POLD4 holoenzyme (Homo sapiens); MST; room temperature).
The Kd of `B5 (HSPB5)` is reported as 5 µM (BAG3 (Homo sapiens, UniProt O95817); ITC; 25 °C, relative values).
With `ART[Lys(Me)]QTARKSTG (histone H3 2-13 (UniProt P68431); K4me1; Lys(Me) = CNCCCC[C@H](N)C(=O)O; sequence looked up)` the Kd was 9.1 ± 1 µM (BIRC5 1-142 (Homo sapiens, UniProt O15392); ITC; peptide; pH 7.2).
The Kd of `TKDELTKIMDRASKIEQIQKLAKYAISALNYEDLPTAKDELTKALDLLNSI (VTA1 280-330 (Saccharomyces cerevisiae, UniProt Q06263); sequence looked up)` is reported as 85 ± 13 µM (VPS4 299-415 (Saccharomyces cerevisiae, UniProt P52917); SPR; pH 7.0, NaCl 150 mM, equilibrium fit).
Under “aggregation lag time”, `rat amylin` is recorded as 50 min (Islet amyloid polypeptide (IAPP, Homo sapiens, UniProt P10997); ThT fluorescence; 1 molar equivalents, pH 7.2, 2% HFIP).
The Kd of `B6 (TREM2 19-174)` is reported as 0.0127 ± 0.0005 µM (Aβ42 oligomers (Homo sapiens, UniProt P05067); BLI; 30 °C).
`S100A4, QSY 35 on amines (Homo sapiens, UniProt P26447)` has a Kd of 0.0304 µM (SRXN1 C99S, Alexa 546 label (Homo sapiens); FRET; apparent, with Ca2+, added: Ca2+).
For `TDRD3 fragment (Homo sapiens)`, the Kd was 50 µM (histone H3, asymmetric dimethyl R17; fluorescence polarisation).
`{5‑TAMRA-Ahx}-NLSELDRLLDELN (PXN residues 141-153 L10D; N-terminal TAMRA, aminohexanoyl linker; 5‑TAMRA = CN(C)c1ccc2c(-c3ccc(C(=O)*)cc3C(=O)[O-])c3ccc(N(C)C)cc3[o+]c2c1; Ahx = NCCCCCC(=O)O)` gave a Kd of 82.3 µM (PTK2 892-1052 L994E (Homo sapiens, UniProt Q05397); fluorescence polarisation; peptide).
`B7 (TLN1 2494-2541)` gave a Kd of 1.9 ± 0.2 µM (TLN1 2293-2541 (Homo sapiens, UniProt Q9Y490); fluorescence polarisation; peptide; pH 7.2, 4 °C, added: Oregon Green-labelled DD-GC 25 nM).
With `ribosomes whole ribosome (Rattus norvegicus)` the Kd was 0.5 ± 0.0462 µM (CRIP3 precursor 22-286 (Zea mays, UniProt P28522); SPR; ribosomes).
The Kd of `IL31RA Fc fusion, CBD with 1 FNIII (Felis catus)` is reported as 0.106 µM (IL31 residues 1-136 (Felis catus); flow cytometry; yeast).
`TPTPSARRTIGPRAPKSKTTY (Cdc12 residues 20-40 (Schizosaccharomyces pombe))` gave a Kd of 5 µM (cdc15 19-312 E30K/E152K (Schizosaccharomyces pombe, UniProt Q09822); ITC; peptide; pH 8.0, 25 °C, NaCl 100 mM).

Repeated from above:
`S100A4, QSY 35 on amines (Homo sapiens, UniProt P26447)` has a Kd of 0.0304 µM (SRXN1 C99S, Alexa 546 label (Homo sapiens); FRET; apparent, with Ca2+, added: Ca2+).
With `ribosomes whole ribosome (Rattus norvegicus)` the Kd was 0.5 ± 0.0462 µM (CRIP3 precursor 22-286 (Zea mays, UniProt P28522); SPR; ribosomes).
With `B2 (CACYBP)` the Kd was 2.1 µM (MAB21L4 (Homo sapiens, UniProt Q08AI8); MST).
`GAGUUGAGUUGAGUUGAGUUGAGUUGAGUUGAGUUGAGUUGAGUUGAGUUGAGUU (ssRNA; single strand)` gave a Kd of 0.093 ± 0.007 µM (mtrB full length assumed T30V/K56L (Bacillus subtilis, UniProt P19466); filter binding; added: L-tryptophan 1 mM).
